Published values of several laboratories.
Each numbered part is a random draw from the data of one study; scales do not carry over between parts.

Study 1 — technique: RNA Bind-n-Seq; form: RNA; medium: in vitro; tested at: 365 nM; reference: no-protein control; reading: higher = stronger binding; quantity: RBNS enrichment (R)
Target: RNA binding protein fox-1 homolog 2, RRM domain, GST-SBP tag (RBFOX2, Homo sapiens, UniProt O43251-10, residues 100-194)
Setting: natural RNA segment, single round, ends assumed
All sequences stand within: GGGAGUUCUACAGUCCGACGAUC … UGGAAUUCUCGGGUGCCAA
Construct (chain): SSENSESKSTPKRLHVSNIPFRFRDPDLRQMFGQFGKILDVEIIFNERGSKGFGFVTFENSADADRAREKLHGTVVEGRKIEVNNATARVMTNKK
Oligonucleotide = UAUCUAGCUUCCAUAAUUUAUACCAGAACAAAAUGUUUUAGCCAGUUUGUUUCUACAUACCUAUGACCACAGCUCUGGAAAAAUAGCAAAUGAAGAAAUGAAUUGCCAAA; value = 0.326
Oligonucleotide = AACUAUUUAAGAGCCAAUUAAACUAUGAAAUAGUUAUAAAAUUAUUUUUAAUAUUUAAGGCCUUGAAAUUAUAUUCCAAGGCAAAUCUAAAUGGGUGUAGUUGUAUAUGC; value = 0.483
Oligonucleotide = AUUCUUAUCAGCUAAAAUUAUCAAGUGGGCCAUUCCCAGAUGAAAAUUUCUAAUCUCAUGAGGUCUGUGGUGCUGCAGAAUUUAUACUGCAAUGUGGACUGUUUAGAAUU; value = 0.5
Oligonucleotide = ACACUCUCUCUGAGGGACUGUAGCUAUUAGAUACUGUCCUCACACCCUCGAGCUACCAGCCAGGGCUCUAAGUUGCUCUCGUGAUCUUAGUUAGAAAUACAGGCUACAGU; value = 0.252
Oligonucleotide = GCCCUUCAAUGCCCCCAAGUGGCCCAGAACUUGGGGAGCCAGUUCACCCACGGGUGGUCCAGGUCACGACUCUGCACGCCCUUAGGCCAGGUCAGCUGCGAGGGUCACAG; value = 0.475
Oligonucleotide = AGUGAAUGGAAAACCUGGGAGAGGAAAGGGUGGACAGAAUUCAAGUCUGCUUCUGUCCCAGCCACAUCCACUUGUCAAUAAAGGCCUUCUGUACCUGACUUUGGGCAACA; value = 0.281
Oligonucleotide = CCACACCACACCAGCUGGUGCUGCCCAUGUCUGUCGAAUCAUAACGGAAAAUUCCCCAGAUCACGUUUGGAUUUAAAAACUCAUCCCUUGUCGUGCUUCAAUGCAUGCCA; value = 0.413
Oligonucleotide = GAAUAGGUACUUUUGGAAGUUCAAAGCAAGUGGCAAACUUUCAUAUAAACAUGUUAAAUGCAGGAUAUUUCUGCUUGGGGCAUCUUUGUGAUUUGUACUUUCCUACAAUU; value = 0.384
Oligonucleotide = AGGUAAUAGAUAGGUGAUAUACAUGAUACAUUCUCAAGAGUUGCUUGACCGAAAGUUACAAGGACCCCAACCCCUUUGUCCUCUCUACCCACAGAUGGCCCUGGGAAUCA; value = 0.787
Oligonucleotide = UAGUCACAGCUUCUACUUGCAUAGCCCUCAGCUCCUCGAUGCAGGAAGGGGGCACUGCAUUGCUCUUUUGUUGCAGAGGCAGGGGGUAACUGCAUUAUUAUUGUGAAACA; value = 0.477
Oligonucleotide = GUCAUGGUGGUGGGUUUCUAUCAUCCUGUCUCUGUUUAAAAGGGACUGAAUAGUUGGGUUUUAAAAGUGCAUGCUAUAAACAGACGAGCAUCCUAGAGCUCACUGAGCAC; value = 4.42
Oligonucleotide = UAAAUUAAAAACCACAAGUGUUUAUUGUAGUGGUUAAACUGUAGCAUCUCAGCAUCUGGGUGGAAGCUGCCUAUAUUUCUUCCCAGUUUAACUGGGGACCAUCUGUGAAA; value = 0.664

Study 2 — technique: competition protein-binding microarray; form: double-stranded DNA, one strand shown; medium: in vitro; tested at: 2 µM; with: Cbf1 competitor, 0.05 µM; reading: higher = stronger binding; quantity: fluorescence intensity; all sequences stand within: … GTCTTGATTCGCTTGACGCTGCTG
Target: Phosphate system positive regulatory protein PHO4, full length, GST-tagged (PHO4, Saccharomyces cerevisiae, UniProt P07270, residues 1-312)
Setting: whole 60-bp probe, lowest competitor level
Construct (chain): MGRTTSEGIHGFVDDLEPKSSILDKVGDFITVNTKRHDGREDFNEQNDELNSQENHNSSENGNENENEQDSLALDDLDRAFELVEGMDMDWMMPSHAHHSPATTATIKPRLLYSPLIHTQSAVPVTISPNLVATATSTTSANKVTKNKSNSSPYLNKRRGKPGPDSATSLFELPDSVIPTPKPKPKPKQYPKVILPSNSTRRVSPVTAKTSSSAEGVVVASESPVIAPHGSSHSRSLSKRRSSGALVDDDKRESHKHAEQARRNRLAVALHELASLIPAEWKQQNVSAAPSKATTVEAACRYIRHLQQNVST
Oligonucleotide = GTTGGGTTCTACCGTCACGCAATTGCTTCAAGGACC; value = 3930 a.u.
Oligonucleotide = AAAGCGGTAATTTGAGGCGTGGGTGCAGATATCTAT; value = 8730 a.u.
Oligonucleotide = TGCGCAACAACTTGGCACGTGTTTTTATGTCTAGAA; value = 18100 a.u.
Oligonucleotide = CTAACGAAGGTTTGGTGTGTGGGTGACAAGCCAAGT; value = 5570 a.u.
Oligonucleotide = CGAAGGACGTCGCTACACGTGAAAATTCTCCACCAA; value = 10300 a.u.
Oligonucleotide = AAAGCGGTAATTTTTCACGTGACGTCAAATATCTAT; value = 10600 a.u.
Oligonucleotide = CTTTCCCGATCTTGGACAGTGGGTGTAGCACATTTG; value = 4200 a.u.
Oligonucleotide = TTTTATTCCTGGAAAAGCGTGCAAATATTTTTCGAG; value = 7980 a.u.
Oligonucleotide = GTCTTGTCTCATTGTGCGGTGGGTGTCCCCACTTCA; value = 5690 a.u.
Oligonucleotide = CATACCCAACCTTGGGTTGTGGGTGAAGATATTTGT; value = 5220 a.u.
Oligonucleotide = GGGATATTCCACCATCACGTCTGCGCCAAGCCACAA; value = 4330 a.u.
Oligonucleotide = AAAGCGGTAATTTGGGCAGTGGGTGCAGATATCTAT; value = 4320 a.u.
Oligonucleotide = CAGCAACGGACAGGCGTCGTGCGGACAAACTTGCTC; value = 7210 a.u.
Oligonucleotide = CTTCTGTAAATTTGCAGAGTGGGTGGACGCGCCCCG; value = 3640 a.u.
Oligonucleotide = AAATTACTAAGTTGTTAGGTGGGTGACGCCGTATGA; value = 3720 a.u.
Oligonucleotide = GAGAGGATTGCGACCTTGTTATCATGGCATTGATGT; value = 4160 a.u.
Oligonucleotide = TGCGCAACAACTTGTCGCGTGGGTGTATGTCTAGAA; value = 9360 a.u.
Oligonucleotide = AGTAAGAACAATACCCACGTGCTTTTCAATGTACAA; value = 18000 a.u.
Oligonucleotide = AATGTACAATTTTACCAGGCGTGGAACCTGGACCGG; value = 5170 a.u.
Oligonucleotide = AGGGTAACATACCATCACGTGCAAACCAGGATAATT; value = 20100 a.u.
Oligonucleotide = AACCGAATGGCATCGCACGCTATGCAACTAATGACC; value = 7730 a.u.
Oligonucleotide = CGTCCTAGTGATTTTCACGTGCCATCCATGAGGAAG; value = 13500 a.u.
Oligonucleotide = GTCTTGTCTCATTGAGACGTGGGTGTCCCCACTTCA; value = 6050 a.u.
Oligonucleotide = CTTTCCCGATCTTGTGCAGTGGGTGTAGCACATTTG; value = 5240 a.u.
Oligonucleotide = CAACAAGCCTGTTACACCATGACAACAGATCCTTCT; value = 4300 a.u.

Study 3 — technique: protein-binding microarray; form: double-stranded DNA, one strand shown; medium: in vitro; tested at: 940 nM top; setting: 60-bp whole probe; with: salmon DNA 0.4 mg/ml; reference: random background probes; reading: higher = stronger binding; quantity: fitted relative affinity; all sequences stand within: GCCTAGCAC … GTCTTGATTCGCTTGACGCTGCTG
Target: Interferon regulatory factor 5, full length, phosphomimetic (IRF5, Homo sapiens, UniProt Q13568-2, residues 1-514, S451D/S453D/S456D/S462D)
Oligonucleotide = TTAGATATCATTATCGATTAGTGCTAG; value = 0.754 z-score
Oligonucleotide = TCATGCCTCATCTTGCAGACTGTGCTA; value = 0.245 z-score
Oligonucleotide = TCAACTTTCTTTTGCTTACTGTGCTAG; value = 1.75 z-score
Oligonucleotide = TCATTTACCCATCTCCAACTGTGCTAG; value = 1.12 z-score
Oligonucleotide = TTATGACTGGGGTATCGGTTAGTGCTA; value = 3.03 z-score
Oligonucleotide = CATCATTGCTTTCTCTTTCAGTGCTAG; value = 2.37 z-score
Oligonucleotide = ACCATTTTGGTTTTCCTTATGTGCTAG; value = 1.15 z-score
Oligonucleotide = TTTGGTTCCGGTTTCGGTTAGTGCTAG; value = 10.3 z-score
Oligonucleotide = GACGGTATCGGTCTCAGGACGTGCTAG; value = 8.48 z-score
Oligonucleotide = GACGAACTGATTTTCGAGACGTGCTAG; value = 0.302 z-score
Oligonucleotide = AACGGTATCGGGTTTCGGGACGTGCTA; value = 5.48 z-score
Oligonucleotide = GACGTACTGGGGTATCGGGACGTGCTA; value = 0.62 z-score
Oligonucleotide = GACGGACTGCGACTGGGGACGTGCTAG; value = -0.627 z-score
Oligonucleotide = TTAGGACTGAACTTTCGGTTAGTGCTA; value = 1.56 z-score
Oligonucleotide = GACGGTTTGGGTCTCGGGACGTGCTAG; value = 0.654 z-score
Oligonucleotide = TCACTTTACTCACTCGGACTGTGCTAG; value = 1.06 z-score
Oligonucleotide = TTAGGTTTCGGGCTCGGTTAGTGCTAG; value = 8.59 z-score

Study 4 — technique: RNA Bind-n-Seq; form: RNA; medium: in vitro; tested at: 200 nM; setting: whole 134-nt RNA, ends assumed; with: 150 mM LiCl; reference: input library; reading: higher = stronger binding; quantity: log2 enrichment; each molecule: 7-deaza-guanosine replaces G
Target: Fragile X messenger ribonucleoprotein 1, C-terminal low-complexity region (Fmr1, Mus musculus, UniProt P35922)
All sequences stand within: GGGAGUUCUACAGUCCGACGAUC … UGGAAUUCUCGGGUGUCAAGG
Oligonucleotide = UUCGUUUUUUUCCUUAGUCUGAAGUUGCAGCCGGAGUGAAGAAGAGCGGACCGCUGCCCAGUGCUGAGGUAGAGUGUCGGAUCUGUUUUC; value = -2.98
Oligonucleotide = CUCAAGUCCUGUGCUACACAUCGUAUGUACCGAAUCGGGAGGGGAGGGGAGGGGAAAGUAUUAUGUUACGCCGUUCGGAUCUGCACUUCC; value = -0.278
Oligonucleotide = UUGGAGGUGGAUUUUGUUUAUUUUUUUAGCUCAUUUCCAGGGGUGGGAAUUUUUUUUUAAUAUGUGUCAUGAAUAAAGUUGUUUUUGAAA; value = -0.97
Oligonucleotide = CUGUGCUACACAUCGUAUGUACCGAAUCGGGGUUUUUUGGGGUUUUUUGGGGUUUUUUGGGGAAAGUAUUAUGUUACGCCGUUCGGAUCU; value = 1.59
Oligonucleotide = GCAGGAAGUAAAAACAAAUGGAAAUGCUUAGGAUAGUGGCAGGGGUGGGGGUUGCUAAGGAAAGGGUGGGAUGGGAGUGGGUAAAGAGUU; value = 1.37
Oligonucleotide = ACCAUGCAGGUGGGCAUCUUUGGGAAGUGGGGCAAGGGGGGGAUAGGGAGGGGGGUAGCACUUUGGGAACAGGUGGUCCCAGGUCGUUUC; value = 1.69
Oligonucleotide = GUCCUGUGCUACACAUCGUAUGUACCGAAUCGGGGUGGGGAAAAAAAGGGGUUUGGGGAAAGUAUUAUGUUACGCCGUUCGGAUCUGCAC; value = -0.612
Oligonucleotide = AGUCCUGUGCUACACAUCGUAUGUACCGAAUCGGGAAAAAGGAAAAAGGGAAAAAGGAAAGUAUUAUGUUACGCCGUUCGGAUCUGCACU; value = -1.6
Oligonucleotide = UCAAGUCCUGUGCUACACAUCGUAUGUACCGAAUCGGAAAGGAAAGGGGAAAGGAAAGUAUUAUGUUACGCCGUUCGGAUCUGCACUUCC; value = -0.876
Oligonucleotide = CACAGACAACACGCACCCACACAGACACAGAGGGAAGGGGUUGGGAUGGGGGCAGGGUGCACAGCAGGGCGGGGUAGGACCCCAGCCCCU; value = 0.0193
Oligonucleotide = GCAGGAAGUAAAAACAAAUGGAAAUGCUUCGGAUAGUGGCAGGGGUGGGGGUUGCUAAGGAAAGGGUGGGAUGGGGGUGGGUAAAGAGUU; value = 1.75

Some of these lines once more (study 2):
Oligonucleotide = AGTAAGAACAATACCCACGTGCTTTTCAATGTACAA; value = 18000 a.u.
Oligonucleotide = AATGTACAATTTTACCAGGCGTGGAACCTGGACCGG; value = 5170 a.u.
Oligonucleotide = AGGGTAACATACCATCACGTGCAAACCAGGATAATT; value = 20100 a.u.
Oligonucleotide = AACCGAATGGCATCGCACGCTATGCAACTAATGACC; value = 7730 a.u.
Oligonucleotide = CGTCCTAGTGATTTTCACGTGCCATCCATGAGGAAG; value = 13500 a.u.
